# Published values from different studies.
# ± gives the spread as reported. Non-standard residues stand in square brackets, D forms with d.
Substance,target,assay,test system,setting,how to read,endpoint,value
[Cl-].[Cl-].[Mg+2],bovine lens protease,,,"1 mM, 37 °C",,remaining activity,111%
CCCCCCCC/C=C\CCCCCCCC(=O)OCC(COC(=O)CCCCCCC/C=C\CCCCCCCC)OC(=O)CCCCCCC/C=C\CCCCCCCC,amyloid beta peptide,brain/serum ratio,male CD-1 mouse,"intravenous, 7.2 mg, 10 min, added: radioiodinated Aβ co-injected, LPS-treated mice",,LPS-enhanced brain uptake of I-Aβ,inhibited
IINFEKE,ERAP1 human L734R,activator,peptide,"100 µM, pH 8.0, 27 °C, added: L-AMC substrate",,Hill coefficient,1.5
CN(C)CC[C@@H]1NC(=O)c2coc(n2)-c2coc(n2)-c2cccc(c2)-c2cccc(c2)-c2nc(co2)-c2nc(co2)CNC1=O,human telomeric quadruplex d(TTAGGG)4,UV melting,,"20 µM, pH 7.5, added: 150 mM K+",relative to: DNA without compound,melting temperature shift,10.6 °C
Clc1ccc(C(c2ccccc2Cl)C(Cl)Cl)cc1 (stereo not drawn),estrogen receptor alpha (human),"luciferase reporter gene, agonist",BG1Luc4E2,"10 µM, 24 h",relative to: maximum of estradiol,efficacy,52 ± 1%
COc1cc2c3c4c1Oc1cc5c(cc1O4)[C@@H](Cc1ccc(O)c(c1)Oc1ccc(cc1)C[C@@H]3N(C)CC2)N(C)CC5,pre-miR-21 RNA,differential scanning fluorimetry,,,"relative to: untreated, positive = stabilisation",maximal ΔTm,5.48 °C
Sc1nc2ccccc2s1,cysteine peptide Ac-RFAACAA-COOH,DPRA RapidFire-MS/MS,,"24 h, pH 7.5, added: 5.0 µM cysteine peptide",,maximal peptide depletion,-97.3%
CC(=O)N[C@@H](CC(=O)O)C(=O)N[C@@H](CC(C)C)C(=O)N[C@@H](Cc1c[nH]c2ccccc12)C(=O)N[C@@H](CCCCN)C(=O)N[C@@H](CC(C)C)C(=O)NCCCOCCOCCOCCCNC(=O)CCCCCCCCCCS,anti-p53 antibody,"binding, AFM force spectroscopy",,second monolayer,,adhesion pull-off force,1.3e-10 ± 2.9e-11 N
Cc1ccc(OCC(=O)N(Cc2nc(-c3ccc(C)cc3)no2)C(C)C)cc1,rabbit 20S proteasome chymotrypsin-like,dialysis,,"10 µM, 20 min dialysis, 30 min preincubation",,activity recovered,> 70%
CC(C=O)Cc1ccc(C(C)C)cc1 (stereo not drawn),cysteine peptide Ac-RFAACAA-COOH,DPRA RapidFire-MS/MS,,"24 h, pH 7.5, added: 5.0 µM cysteine peptide",,maximal peptide depletion,-14.8%
Nc1nc2c(ncn2[C@@H]2O[C@@H]3COP(=O)(O)O[C@H]3[C@H]2O)c(=O)[nH]1,cone cGMP-gated channel (Morone saxatilis),"ion current, agonist, inside-out patch clamp",,"endogenous modulator present, -40 mV",,EC50,86 µM
Nc1ncnc2c1ncn2[C@H]1C[C@@H]2OP(=O)(O)OC[C@H]2O1,cAMP antibody,"binding, non-acetylated EIA",,,,EC50,0.019 µM
RAFPNAPYL,HLA-A2 (human),"peptide-MHC dissociation, flow cytometry",peptide,37 °C,,complex half-life,1.2 h
CC(C)(C)OC(=O)NCC[C@@H]1NC(=O)c2coc(n2)-c2coc(n2)-c2cccc(c2)-c2cccc(c2)-c2nc(co2)-c2nc(co2)CNC1=O,human telomeric quadruplex d(TTAGGG)4,UV melting,,"20 µM, pH 7.5, added: 150 mM K+",relative to: DNA without compound,melting temperature shift,1.1 °C
CCC/C=C/C=O,cysteine peptide Ac-RFAACAA-COOH,DPRA RapidFire-MS/MS,,"24 h, pH 7.5, added: 5.0 µM cysteine peptide",,maximal peptide depletion,-28.1%
Nc1nc2c(ncn2[C@@H]2O[C@H](COP(=O)(O)OP(=O)(O)OP(=O)(O)O)[C@@H](O)[C@H]2O)c(=O)[nH]1,volume-regulated anion channel,,,"0 mV, added: total nucleotide 1 mM",,Kd,600 ± 300 µM
O=C1CNC(=O)c2coc(n2)-c2coc(n2)-c2cccc(c2)-c2cccc(c2)-c2nc(co2)-c2nc(co2)CN1,human telomeric quadruplex d(TTAGGG)4,UV melting,,"20 µM, pH 7.5, added: 50 mM K+",relative to: DNA without compound,melting temperature shift,4.8 °C
C=CC(=O)Nc1ccc(C(=O)Nc2n[nH]c3c2CN(C(=O)N[C@H](CN(C)C)c2ccccc2)C3(C)C)cc1,human CDK7,"RNA polymerase II phosphorylation, inhibitor",HeLa,6 h,,minimum effective concentration,62.5 nM
CC(=O)C(C)=O,cysteine peptide Ac-RFAACAA-COOH,"peptide depletion, DPRA RapidFire-MS/MS",,"24 h, pH 7.5, room temperature, added: 5.0 µM cysteine peptide",,IC50,41.1 µM
COC1=CC(c2cc3ccccc3[nH]2)=N/C1=C\c1[nH]c(C)cc1C,pre-miR-21 RNA,differential scanning fluorimetry,,,"relative to: untreated, positive = stabilisation",maximal ΔTm,3.2 °C
Nc1nc2[nH]c(Cc3ccc(C(=O)N[C@@H](CCC(=O)O)C(=O)O)cc3)cc2c(=O)[nH]1,"folate receptor beta, human",,D4 cells,"concentration not given, 15 min, 0 °C, added: [3H]folic acid 50 nM","relative to: folic acid, higher = stronger binding",relative binding affinity,< 0.01
c1cnc2c(c1)ccc1cccnc12,bovine lens protease,"enzyme activity, inhibitor",,"500 µM, 30 min preincubation, 37 °C",,remaining activity,8%
CC(=O)N[C@@H](CC(N)=O)C(=O)NCC(=O)N[C@@H](CCCCN)C(=O)N[C@@H](C)C(N)=O,Asn-Gly peptide isomerisation to succinimide,1H NMR time course,,"pH 7.4, 28 °C",,rate constant k1,0.009 h⁻¹
CN(C)CCCN,cysteine peptide Ac-RFAACAA-COOH,"peptide depletion, DPRA RapidFire-MS/MS",,"24 h, pH 7.5, room temperature, added: 5.0 µM cysteine peptide",,IC50,inactive
O=c1oc(Cl)c(Cl)c2ccccc12,bovine lens protease,"enzyme activity, inhibitor",,"500 µM, 30 min preincubation, 37 °C",,remaining activity,15%
WHGSLKQNLWWY,VEGFR-3 (human),"binding, ELISA",peptide,,,affinity constant,16.4 ± 8.6 µg/mL
C[C@@H](O)[C@H](N)C(=O)O,"TsaB TsaC TsaD TsaE, Escherichia coli",substrate,,"23 °C, added: ATP 1 mM, tRNALys 10 µM",,Km,590 ± 90 µM
COC(=O)c1ccccc1O,cysteine peptide Ac-RFAACAA-COOH,DPRA RapidFire-MS/MS,,"24 h, pH 7.5, added: 5.0 µM cysteine peptide",,peptide depletion,inactive
Cc1cncc2cccc(S(=O)(=O)N3CCCN(C(=O)CN)C[C@@H]3C)c12,panel of 300 human kinases,,,0.5 µM,direction not given,Gini score,0.738
CCO/C=C1\N=C(c2ccccc2)OC1=O,cysteine peptide Ac-RFAACAA-COOH,DPRA RapidFire-MS/MS,,"24 h, pH 7.5, added: 5.0 µM cysteine peptide",,maximal peptide depletion,-95.4%
O=C1N[C@@H](Cc2ccccc2)C(=O)NCc2coc(n2)-c2coc(n2)-c2cccc(c2)-c2cccc(c2)-c2nc(co2)-c2nc1co2,human telomeric quadruplex d(TTAGGG)4,UV melting,,"20 µM, pH 7.5, added: 150 mM K+",relative to: DNA without compound,melting temperature shift,1.6 °C
IINFEKL,ERAP1 human wild type,activator,peptide,"100 µM, pH 8.0, 27 °C, added: L-AMC substrate",,Vmax of L-AMC hydrolysis,391 ± 6 nmol/min/µg
CC(C)[C@@H]1NC(=O)c2coc(n2)-c2coc(n2)-c2cccc(c2)-c2cccc(c2)-c2nc(co2)-c2nc(co2)CNC1=O,human telomeric quadruplex d(TTAGGG)4,UV melting,,"20 µM, pH 7.5, added: 50 mM K+",relative to: DNA without compound,melting temperature shift,6.4 °C
CCCCCCC(C=O)=Cc1ccccc1,cysteine peptide Ac-RFAACAA-COOH,DPRA RapidFire-MS/MS,,"24 h, pH 7.5, added: 5.0 µM cysteine peptide",,peptide depletion,inactive
"H-H[dW][dK]W[dF]K-NH2 (D-Trp, D-Lys, D-Phe, C-amide)",CXCR4 (human),"T cell chemotaxis, antagonist, Transwell migration",primary human T cells,"concentration not given, 5 h, 37 °C, added: CXCL12 10 nM",,inhibition,20 to 60%
CN1C(=O)C=CC1=O,bovine lens protease,,,"0.2 mM, 37 °C",,remaining activity,12%

# For quick reference, copied from above:
Substance,target,assay,test system,setting,how to read,endpoint,value
COC1=CC(c2cc3ccccc3[nH]2)=N/C1=C\c1[nH]c(C)cc1C,pre-miR-21 RNA,differential scanning fluorimetry,,,"relative to: untreated, positive = stabilisation",maximal ΔTm,3.2 °C
Nc1nc2c(ncn2[C@@H]2O[C@@H]3COP(=O)(O)O[C@H]3[C@H]2O)c(=O)[nH]1,cone cGMP-gated channel (Morone saxatilis),"ion current, agonist, inside-out patch clamp",,"endogenous modulator present, -40 mV",,EC50,86 µM
C=CC(=O)Nc1ccc(C(=O)Nc2n[nH]c3c2CN(C(=O)N[C@H](CN(C)C)c2ccccc2)C3(C)C)cc1,human CDK7,"RNA polymerase II phosphorylation, inhibitor",HeLa,6 h,,minimum effective concentration,62.5 nM
